Assay results of several laboratories.
Each line is one published result; not all experiments were run side by side. Several values in a cell are separate wells, animals, samples, runs or records. ± marks the error that the study gave.
Metallo-beta-lactamase type 2: Metallo-beta-lactamase type 2 (Serratia marcescens, UniProt P52699)
Chain of UniProt P50391 (whole entry, looked up): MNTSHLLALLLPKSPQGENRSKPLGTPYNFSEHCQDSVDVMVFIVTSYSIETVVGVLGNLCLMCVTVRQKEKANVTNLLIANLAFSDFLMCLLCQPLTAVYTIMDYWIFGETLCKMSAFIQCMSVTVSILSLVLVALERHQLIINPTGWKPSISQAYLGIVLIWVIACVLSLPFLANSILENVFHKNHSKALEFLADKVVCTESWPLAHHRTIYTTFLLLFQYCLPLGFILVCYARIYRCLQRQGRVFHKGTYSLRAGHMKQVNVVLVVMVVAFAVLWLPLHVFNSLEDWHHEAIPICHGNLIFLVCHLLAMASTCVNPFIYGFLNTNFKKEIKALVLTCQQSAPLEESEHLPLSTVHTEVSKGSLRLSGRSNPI
Chain of UniProt Q7Z418 (whole entry, looked up): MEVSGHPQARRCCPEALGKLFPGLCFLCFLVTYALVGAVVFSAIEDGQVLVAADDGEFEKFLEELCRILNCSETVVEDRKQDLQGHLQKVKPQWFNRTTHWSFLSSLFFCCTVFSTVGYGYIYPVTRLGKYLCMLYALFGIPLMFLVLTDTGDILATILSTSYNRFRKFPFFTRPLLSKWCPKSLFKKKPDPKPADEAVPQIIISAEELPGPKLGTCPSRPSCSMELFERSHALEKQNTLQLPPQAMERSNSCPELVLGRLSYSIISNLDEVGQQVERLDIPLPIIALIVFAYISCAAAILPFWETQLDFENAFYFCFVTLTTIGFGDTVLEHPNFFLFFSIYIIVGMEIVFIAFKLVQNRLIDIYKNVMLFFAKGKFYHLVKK
Chain of UniProt P28062 (whole entry, looked up): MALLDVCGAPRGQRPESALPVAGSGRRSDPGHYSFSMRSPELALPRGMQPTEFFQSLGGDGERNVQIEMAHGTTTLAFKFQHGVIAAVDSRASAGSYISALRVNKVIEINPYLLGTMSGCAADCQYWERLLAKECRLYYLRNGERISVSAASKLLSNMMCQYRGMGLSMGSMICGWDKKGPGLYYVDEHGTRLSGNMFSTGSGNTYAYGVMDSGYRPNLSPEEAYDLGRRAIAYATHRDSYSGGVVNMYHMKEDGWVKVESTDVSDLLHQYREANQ
Chain of UniProt P21729 (whole entry, looked up): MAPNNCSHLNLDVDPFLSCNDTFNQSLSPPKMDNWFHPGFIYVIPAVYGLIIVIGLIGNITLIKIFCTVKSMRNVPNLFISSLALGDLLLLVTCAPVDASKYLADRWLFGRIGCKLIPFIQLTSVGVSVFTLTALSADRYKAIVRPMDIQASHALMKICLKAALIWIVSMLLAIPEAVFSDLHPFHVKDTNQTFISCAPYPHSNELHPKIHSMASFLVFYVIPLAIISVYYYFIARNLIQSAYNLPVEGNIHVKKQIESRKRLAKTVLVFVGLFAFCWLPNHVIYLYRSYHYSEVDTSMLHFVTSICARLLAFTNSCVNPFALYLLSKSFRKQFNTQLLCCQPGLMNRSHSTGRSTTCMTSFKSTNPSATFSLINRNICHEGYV
Chain of UniProt P53350 (whole entry, looked up): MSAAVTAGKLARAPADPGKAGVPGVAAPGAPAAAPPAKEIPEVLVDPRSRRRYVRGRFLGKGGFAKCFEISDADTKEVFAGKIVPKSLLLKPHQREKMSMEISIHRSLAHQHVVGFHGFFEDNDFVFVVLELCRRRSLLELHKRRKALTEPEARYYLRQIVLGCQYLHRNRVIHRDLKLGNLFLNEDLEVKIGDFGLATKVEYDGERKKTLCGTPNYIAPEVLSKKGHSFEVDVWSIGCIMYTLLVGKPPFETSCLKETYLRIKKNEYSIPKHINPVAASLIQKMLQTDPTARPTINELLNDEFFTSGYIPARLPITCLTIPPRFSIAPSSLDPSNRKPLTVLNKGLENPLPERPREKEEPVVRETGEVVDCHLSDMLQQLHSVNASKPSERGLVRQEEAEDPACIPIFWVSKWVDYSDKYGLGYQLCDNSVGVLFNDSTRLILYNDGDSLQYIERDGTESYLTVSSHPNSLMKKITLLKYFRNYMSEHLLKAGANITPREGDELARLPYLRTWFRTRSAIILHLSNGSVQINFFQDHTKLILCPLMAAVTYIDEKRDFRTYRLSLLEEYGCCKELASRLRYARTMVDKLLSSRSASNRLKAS
Chain of UniProt P20618 (whole entry, looked up): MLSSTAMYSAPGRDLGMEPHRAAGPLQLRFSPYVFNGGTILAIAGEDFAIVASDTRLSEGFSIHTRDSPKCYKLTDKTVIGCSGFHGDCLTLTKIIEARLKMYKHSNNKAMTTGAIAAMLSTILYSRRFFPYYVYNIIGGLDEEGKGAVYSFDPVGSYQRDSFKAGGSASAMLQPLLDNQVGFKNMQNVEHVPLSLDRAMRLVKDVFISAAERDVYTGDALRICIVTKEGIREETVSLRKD
Chain of UniProt P47774 (whole entry, looked up): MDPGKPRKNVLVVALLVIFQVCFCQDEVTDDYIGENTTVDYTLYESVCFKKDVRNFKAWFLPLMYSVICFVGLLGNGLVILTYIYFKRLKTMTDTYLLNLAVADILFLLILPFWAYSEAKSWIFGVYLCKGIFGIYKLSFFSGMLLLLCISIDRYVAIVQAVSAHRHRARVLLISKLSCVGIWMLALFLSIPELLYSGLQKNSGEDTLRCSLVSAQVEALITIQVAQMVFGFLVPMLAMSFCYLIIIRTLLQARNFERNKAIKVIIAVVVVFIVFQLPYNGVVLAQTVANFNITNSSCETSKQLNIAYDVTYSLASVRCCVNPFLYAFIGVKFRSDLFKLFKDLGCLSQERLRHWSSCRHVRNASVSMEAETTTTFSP
Chain of UniProt P26718 (whole entry, looked up): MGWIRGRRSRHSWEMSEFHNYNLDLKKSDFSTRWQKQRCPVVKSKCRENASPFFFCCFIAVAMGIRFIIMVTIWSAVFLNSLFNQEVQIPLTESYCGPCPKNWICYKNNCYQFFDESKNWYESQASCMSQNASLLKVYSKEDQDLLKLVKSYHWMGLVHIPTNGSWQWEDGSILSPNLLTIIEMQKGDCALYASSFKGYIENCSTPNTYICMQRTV
Chain of UniProt P32300 (whole entry, looked up): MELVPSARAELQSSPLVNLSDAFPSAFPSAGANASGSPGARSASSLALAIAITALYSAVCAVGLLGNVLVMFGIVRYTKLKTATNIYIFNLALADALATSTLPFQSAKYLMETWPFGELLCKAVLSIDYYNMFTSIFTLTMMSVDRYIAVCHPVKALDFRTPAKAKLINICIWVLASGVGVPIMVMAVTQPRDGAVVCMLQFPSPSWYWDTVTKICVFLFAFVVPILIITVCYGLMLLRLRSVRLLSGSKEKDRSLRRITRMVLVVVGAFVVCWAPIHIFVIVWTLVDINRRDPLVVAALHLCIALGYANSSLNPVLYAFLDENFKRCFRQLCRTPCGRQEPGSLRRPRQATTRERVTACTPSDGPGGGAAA
Chain of UniProt P40261 (whole entry, looked up): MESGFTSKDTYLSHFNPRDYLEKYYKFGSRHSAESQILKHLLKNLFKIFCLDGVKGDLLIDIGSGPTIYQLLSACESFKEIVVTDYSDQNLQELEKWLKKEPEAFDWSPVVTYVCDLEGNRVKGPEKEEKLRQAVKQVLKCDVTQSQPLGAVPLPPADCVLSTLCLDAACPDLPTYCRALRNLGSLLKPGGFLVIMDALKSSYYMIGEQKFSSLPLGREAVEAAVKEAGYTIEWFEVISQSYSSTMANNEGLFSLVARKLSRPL

CC[C@H](C)[C@H](NC(=O)[C@H](CC(C)C)NC(=O)[C@@H]1CCCN1C(=O)[C@H](CO)NC(=O)[C@@H](N)CC(C)C)C(=O)N[C@@H](Cc1ccccc1)C(=O)N[C@H](C(=O)N[C@H](C(=O)N[C@H](C(=O)N1CCC[C@H]1C(=O)N[C@@H](CC(=O)O)C(=O)N[C@H](C(=O)O)[C@@H](C)O)[C@@H](C)O)[C@@H](C)O)C(C)C — IC50 (C-C chemokine receptor type 7, with CCL19 (Ccr7, Mus musculus, UniProt P47774); ligand binding, inhibitor, flow cytometry; B16 expressing CCR7; 4 °C, together with: CCL19): 176 ± 15.6 µM
CC(=O)N[C@@H](CCCNC(=N)N)C(=O)N[C@@H](Cc1ccc(O)cc1)C(=O)N[C@@H](CCCNC(=N)NC(=O)NCCCCN)C(=O)N[C@@H](CC(C)C)C(=O)N[C@@H](CCCNC(=N)N)C(=O)N[C@@H](Cc1ccc(O)cc1)C(=O)O — IC50 (Neuropeptide Y receptor type 4 (NPY4R, Homo sapiens, UniProt P50391); ligand displacement): > 5 µM
Cc1cccc(-c2nc(Nc3ccncn3)c3c(C)csc3n2)n1 — IC50 (Cytochrome P450 2C19 (CYP2C19, Homo sapiens, UniProt P33261); inhibitor): 0.7 µM
COc1cc2c(cc1O)oc1c3ccc(O)cc3oc(=O)c21 — IC50 (Genome polyprotein, NS5B polymerase (Hepatitis C virus genotype 1b, UniProt P26663); NS5B RNA polymerase activity, inhibitor; hepatitis C virus, genotype 1b; together with: poly(rA)/U12): 174 µM
CC[C@@H]1C(=O)N(C)c2cnc(Oc3ccc(C(=O)NCCCC[C@H](NC(C)=O)C(=O)NCCOCCOCC(=O)NCCOCCOCC(=O)NCCOCCOCC(=O)NCCOCCOCC(=O)N4CCC[C@H]4C(=O)N[C@@H](CC(C)C)C(=O)N[C@@H](Cc4cncn4CCCCCCCCc4ccccc4)C(=O)N[C@@H](CO)C(=O)N[C@H](C(N)=O)[C@@H](C)OP(=O)(O)O)cc3OC)nc2N1CC(C)C — IC50 (Serine/threonine-protein kinase PLK1 (PLK1, Homo sapiens, UniProt P53350); enzyme activity, inhibitor): 0.1 ± 0.0043 µM
N[C@@H](Cc1ccc(O)cc1)C(=O)N1Cc2ccccc2C[C@H]1C(=O)N[C@@H](Cc1ccccc1)C(=O)N[C@@H](Cc1ccc(NC(=O)CBr)cc1)C(=O)N[C@@H](CC(=O)O)C(=O)NCCOCCOCCNC(=O)CCCC[C@@H]1SC[C@@H]2NC(=O)N[C@@H]21 — IC50 (Delta-type opioid receptor (Oprd1, Mus musculus, UniProt P32300); ligand displacement, radioligand): 0.0104 µM
CN(C)C(=O)[C@@H](NC(=O)c1cnccc1-c1ccc(C(F)(F)F)cc1)c1cc(C(F)(F)F)cc(C(F)(F)F)c1 — IC50 (NKG2-D type II integral membrane protein, with MICA (KLRK1, Homo sapiens, UniProt P26718); ligand binding, inhibitor, TR-FRET; HEK293 expressing NKG2D and DAP10; together with: MICA-Alexa647): 0.2 ± 0.03 µM
CCCNC(=O)[C@H](CC(C)C)NC(=O)[C@H](Cc1c[nH]cn1)NC(=O)CNC(=O)[C@@H](NC(=O)[C@H](C)NC(=O)[C@H](Cc1c[nH]c2ccccc12)NC(=O)[C@H](CCC(N)=O)NC(=O)[C@@H](Cc1ccccc1)NC(=O)CCCCCNC(=O)CN1CCN(CC(=O)O)CCN(CC(=O)O)CCN(CC(=O)O)CC1)C(C)C [indium-111 labelled] — tissue uptake (Gastrin-releasing peptide receptor (Mus musculus, UniProt P21729); biodistribution; CF-1 mice, spleen; intravenous, 1 h, unblocked): 0.17 ± 0.03 %ID/g
CCN(CC)C(=O)C[C@H](NC(=O)CCc1ccccc1)C(=O)N[C@@H](C)C(=O)NCc1cccc2ccccc12 — IC50 (Proteasome component C5/PSMB8, beta5i subunit (Homo sapiens, UniProt P20618+P28062); inhibitor): 3.75 ± 0.6 µM
N[C@@H](CN[C@@H](CN[C@@H](CC(=O)O)C(=O)O)C(=O)O)C(=O)O — IC50 (IMP-7 metallo-beta-lactamase; enzyme activity, inhibitor; Zn2+-depleted): 53000 µM
CCCC[C@H](NC(=O)CNC(=O)CNC(=O)c1ccc(NN)nc1)C(=O)N[C@H]1CC(=O)NCCCC[C@@H](C(N)=O)NC(=O)[C@H](Cc2c[nH]c3ccccc23)NC(=O)[C@H](CCCNC(=N)N)NC(=O)[C@@H](Cc2ccccc2)NC(=O)[C@H](Cc2c[nH]cn2)NC1=O [technetium-99m labelled] — tissue uptake (C57 mouse, B16/F1 melanoma-bearing, tumor; intravenous, 24 h): 4.54 ± 0.7 %ID/g
N=C(N)NCCC[C@@H]1NC(=O)[C@H](CCCCNC(=O)CCOCCOCCOCCOCCNC(=O)CN2CCN(CC(=O)O)CCN(CC(=O)O)CCN(CC(=O)O)CC2)NC(=O)[C@@H](Cc2ccccc2)NC(=O)[C@H](CC(=O)O)NC(=O)CNC1=O [indium-111 labelled] — tissue uptake (female athymic nude mice, blood; intravenous, 3 µCi, 24 h, U-87 MG glioma xenograft): 0.06 %ID/g
CCCCCCCCCC(=O)CC(=O)Nc1cccc(OC)c1 — IC50 (Transcriptional activator protein LasR (lasR, Pseudomonas aeruginosa, UniProt P25084); reporter gene, antagonist; Escherichia coli, JLD271 with LasR plasmid; together with: OdDHL 2 nM): 4.7 µM
O=C(Oc1cncc(Cl)c1)c1cccs1 — IC50 (Genome polyprotein, 3C protease (Human hepatitis A virus genotype IB, UniProt P08617); enzyme activity, inhibitor): 0.5 µM and 0.54 µM
CC(C)C(=O)Nc1ccccc1-c1nn[nH]n1 — IC50 (Metallo-beta-lactamase type 2; inhibitor; 10 min preincubation, together with: FC5 substrate): > 100 µM
CCCCC[N+](CCCCC)(CCCCC)CCCCC — IC50 (Potassium channel subfamily K member 18 (KCNK18, Homo sapiens, UniProt Q7Z418); ion current, inhibitor, patch clamp): 0.3 µM
CC[C@H](C)[C@H](NC(=O)[C@H](CO)NC(=O)[C@H](CC(=O)O)NC(=O)[C@@H](NC(=O)[C@@H](NC(=O)[C@@H](NC(=O)CNC(=O)[C@H](CCC(N)=O)NC(=O)[C@H](CCC(N)=O)NC(=O)[C@H](Cc1ccc(O)cc1)NC(=O)[C@H](C)NC(=O)[C@@H](N)CCCCN)C(C)C)[C@@H](C)O)C(C)C)C(=O)NCC(=O)N[C@@H](CCSC)C(=O)N[C@@H](CC(C)C)C(=O)N1CCC[C@H]1C(=O)N[C@@H](CCCNC(=N)N)C(=O)N[C@@H](Cc1ccccc1)C(=O)N[C@H](C(=O)N1CCC[C@H]1C(=O)O)[C@@H](C)O — IC50 (HLA-DRA/HLA-DRB3 (Homo sapiens, UniProt P01903+P79483); binding, competition binding; purified HLA-DR; 48 h, together with: radiolabelled probe peptide 0.1-1 nM): 0.086 µM
N=C(N)NCCC[C@@H]1NC(=O)[C@H](CCCCNC(=O)CNC(=O)CNC(=O)CNC(=O)CC[C@H](NC(=O)CCOCCOCCOCCOCCNC(=O)CC[C@H](NC(=O)CN2CCN(CC(=O)O)CCN(CC(=O)O)CCN(CC(=O)O)CC2)C(=O)NCCOCCOCCOCCOCCC(=O)N[C@@H](CCC(=O)NCC(=O)NCC(=O)NCC(=O)NCCCC[C@@H]2NC(=O)[C@@H](Cc3ccccc3)NC(=O)[C@H](CC(=O)O)NC(=O)CNC(=O)[C@H](CCCNC(=N)N)NC2=O)C(=O)NCC(=O)NCC(=O)NCC(=O)NCCCC[C@@H]2NC(=O)[C@@H](Cc3ccccc3)NC(=O)[C@H](CC(=O)O)NC(=O)CNC(=O)[C@H](CCCNC(=N)N)NC2=O)C(=O)NCC(=O)NCC(=O)NCC(=O)NCCCC[C@@H]2NC(=O)[C@@H](Cc3ccccc3)NC(=O)[C@H](CC(=O)O)NC(=O)CNC(=O)[C@H](CCCNC(=N)N)NC2=O)NC(=O)[C@@H](Cc2ccccc2)NC(=O)[C@H](CC(=O)O)NC(=O)CNC1=O [indium-111 labelled] — tissue uptake (female athymic nude mice, brain; intravenous, 3 µCi, 1 h, U-87 MG glioma xenograft): 0.07 %ID/g
CN[C@](C)(C[18F])C(=O)O — tracer uptake (MDA-MB-468 tumour model; host not given, liver; 15 min, tumour-bearing): 5.1 %ID/g
CCCCn1nnc(-c2cccc(NC(=O)[C@H](C)CS)c2)n1 — IC50 (Metallo-beta-lactamase type 2; inhibitor; 10 min preincubation, together with: FC5 substrate): 4.97 µM
Nc1ncnc2c1ncn2[C@@H]1O[C@H](CSCCNC(=O)NCCc2ccccc2)[C@@H](O)[C@H]1O — IC50 (DNA (cytosine-5)-methyltransferase 3B, with DNMT3L (DNMT3B, Homo sapiens, UniProt Q9UBC3); inhibitor): > 50 µM
CC[C@H](C)[C@@H]1NC(=O)[C@H](C)NC(=O)[C@H](Cc2ccccc2)NC(=O)[C@H](Cc2ccc(O)cc2)NC(=O)CSC[C@@H](C(=O)NCC(N)=O)NC(=O)[C@H](CC(C)C)NC(=O)[C@H](Cc2c[nH]c3ccccc23)NC(=O)[C@H]([C@@H](C)CC)NC(=O)[C@H]([C@@H](C)CC)NC(=O)[C@H](CCCCN)NC(=O)[C@H](Cc2c[nH]c3ccccc23)NC(=O)[C@H](CCCNC(=N)N)NC(=O)[C@H](CO)NC(=O)[C@H](CC(N)=O)NC(=O)[C@H](CCCCN)NC(=O)[C@H]([C@@H](C)O)NC(=O)[C@H]([C@@H](C)CC)NC1=O — IC50 (Nicotinamide N-methyltransferase (NNMT, Homo sapiens, UniProt P40261); enzyme activity, inhibitor, mass spectrometry): 1.13 µM
CC(C)C[C@H](NC(=O)[C@H](Cc1ccccc1)NC(=O)CNC(=O)CNC(=O)[C@@H](N)Cc1ccc(O)cc1)C(=O)O — outward current amplitude (rat locus coeruleus neurons; K+ current, agonist; concentration not given): 199 ± 23 pA
NC[C@@H]1O[C@H](O[C@H]2[C@@H](O)[C@H](O[C@@H]3[C@@H](O)[C@H](N)C[C@H](N)[C@H]3O[C@H]3O[C@H](CN)[C@@H](O)[C@H](O)[C@H]3N)O[C@@H]2Cn2cc(CCCc3cn(C[C@H]4O[C@@H](O[C@@H]5[C@@H](O)[C@H](N)C[C@H](N)[C@H]5O[C@H]5O[C@H](CN)[C@@H](O)[C@H](O)[C@H]5N)[C@H](O)[C@@H]4O[C@H]4O[C@@H](CN)[C@@H](O)[C@H](O)[C@H]4N)nn3)nn2)[C@H](N)[C@@H](O)[C@@H]1O — IC50 (HIV-1 TAR RNA; ethidium displacement; pH 6.8): 0.052 µM

Some of these lines once more:
CC(C)C(=O)Nc1ccccc1-c1nn[nH]n1 — IC50 (Metallo-beta-lactamase type 2; inhibitor; 10 min preincubation, together with: FC5 substrate): > 100 µM
CCCCC[N+](CCCCC)(CCCCC)CCCCC — IC50 (Potassium channel subfamily K member 18 (KCNK18, Homo sapiens, UniProt Q7Z418); ion current, inhibitor, patch clamp): 0.3 µM
CC[C@H](C)[C@H](NC(=O)[C@H](CO)NC(=O)[C@H](CC(=O)O)NC(=O)[C@@H](NC(=O)[C@@H](NC(=O)[C@@H](NC(=O)CNC(=O)[C@H](CCC(N)=O)NC(=O)[C@H](CCC(N)=O)NC(=O)[C@H](Cc1ccc(O)cc1)NC(=O)[C@H](C)NC(=O)[C@@H](N)CCCCN)C(C)C)[C@@H](C)O)C(C)C)C(=O)NCC(=O)N[C@@H](CCSC)C(=O)N[C@@H](CC(C)C)C(=O)N1CCC[C@H]1C(=O)N[C@@H](CCCNC(=N)N)C(=O)N[C@@H](Cc1ccccc1)C(=O)N[C@H](C(=O)N1CCC[C@H]1C(=O)O)[C@@H](C)O — IC50 (HLA-DRA/HLA-DRB3 (Homo sapiens, UniProt P01903+P79483); binding, competition binding; purified HLA-DR; 48 h, together with: radiolabelled probe peptide 0.1-1 nM): 0.086 µM
